Measured values pooled from the literature.
Protocols differ between the studies behind these lines. “And” joins repeats or separate records; there may be more than shown. ± marks the error that the study gave.
Sequence of UniProt Q14164 (whole entry, looked up): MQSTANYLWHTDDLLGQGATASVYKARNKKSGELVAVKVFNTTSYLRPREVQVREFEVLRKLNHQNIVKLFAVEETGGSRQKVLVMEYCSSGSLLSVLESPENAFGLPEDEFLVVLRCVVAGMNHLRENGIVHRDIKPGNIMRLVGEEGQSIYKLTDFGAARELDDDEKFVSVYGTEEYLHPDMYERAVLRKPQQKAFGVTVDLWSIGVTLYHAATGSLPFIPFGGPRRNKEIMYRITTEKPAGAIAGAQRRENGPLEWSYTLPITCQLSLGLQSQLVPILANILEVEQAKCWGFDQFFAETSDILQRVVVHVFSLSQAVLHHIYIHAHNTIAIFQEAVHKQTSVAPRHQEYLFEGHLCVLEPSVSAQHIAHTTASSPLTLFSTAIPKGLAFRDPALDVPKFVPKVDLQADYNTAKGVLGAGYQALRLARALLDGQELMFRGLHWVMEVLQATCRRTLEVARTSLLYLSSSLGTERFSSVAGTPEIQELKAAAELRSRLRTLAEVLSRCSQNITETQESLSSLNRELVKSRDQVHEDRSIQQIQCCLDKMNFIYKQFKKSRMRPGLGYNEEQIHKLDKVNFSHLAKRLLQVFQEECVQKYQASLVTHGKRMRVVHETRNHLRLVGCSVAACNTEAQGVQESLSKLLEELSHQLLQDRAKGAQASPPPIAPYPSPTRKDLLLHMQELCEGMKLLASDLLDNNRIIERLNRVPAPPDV

SMILES	target or system	assay	system	conditions	scale	measurement	value
COc1ccc(NC(=O)c2ccc3[nH]c(-c4ccc(N(C)C)cc4)nc3c2)cn1	–	–	CT26, BALB/c nude mice, subcutaneous graft	dose not given, day 7	–	tumour volume	422 mm3 and 1840 mm3 and 892 mm3 and 450 mm3 and 477 mm3
COC1CN([C@H]2CC[C@H]([C@@]3(C)Oc4c(Cl)cc(C(=O)NCc5c(SC)cc(C)[nH]c5=O)c(C)c4O3)CC2)C1	–	RNA-seq, refers to: KIFC3 mouse homolog	mouse, HT-1376 xenograft, whole blood	dose not given	baseline: vehicle	log2 fold change	0.459
COC1OC(C)C(OC2OC(C)C(OS(=O)(=O)O)C(OC3OC(C)C(OC4OC(C)C(OS(=O)(=O)O)C(OC5OC(C)C(OC6OC(C)C(OS(=O)(=O)O)C(OS(=O)(=O)O)C6OS(=O)(=O)O)C(OS(=O)(=O)O)C5OS(=O)(=O)O)C4OS(=O)(=O)O)C(OS(=O)(=O)O)C3OS(=O)(=O)O)C2OS(=O)(=O)O)C(OS(=O)(=O)O)C1OS(=O)(=O)O (stereo not drawn)	–	–	human plasma	16 µg/mL	–	activated partial thromboplastin time	56.8 s and 53.8 s and 56 s
CC(=O)[O-].O.O.O.O.[Co+2].[O-]c1ccc(Br)cc1C=NCCN1CCOCC1	–	superoxide scavenging	–	80 µM	–	inhibition	13%
COC1OC(C)C(OC2OC(C)C(O)C(OC3OC(C)C(O)C(OS(=O)(=O)O)C3OS(=O)(=O)O)C2OS(=O)(=O)O)C(OS(=O)(=O)O)C1OS(=O)(=O)O (stereo not drawn)	–	–	human plasma	128 µg/mL	–	activated partial thromboplastin time	35 ± 0.2 s
CN1CCCNC(=O)c2cccc(c2)C(=O)NCCCN(C)CCCNc2cccc3c2C(=O)c2cccc(c2C3=O)NCCC1	SAS	RNA-seq, refers to: MT-ATP8 mRNA	–	1 µM, 6 h	baseline: untreated cells	log2 fold change	-0.964
CCCCCCCCCCCCCCCC(=O)NCCCC[C@H](NC(=O)[C@H](CCC(=O)O)NC(=O)[C@H](Cc1ccc(O)cc1)NC(=O)[C@H](CCC(=O)O)NC(=O)COCC(=O)NCCCOCCOCCOCCCNC(=O)[C@H](Cc1ccccc1)NC(=O)[C@H](CC(N)=O)NC(=O)[C@H](Cc1c[nH]cn1)NC(=O)[C@@H](NC(=O)[C@H](CC(=O)O)NC(=O)[C@H](CCC(N)=O)NC(=O)[C@H](CC(C)C)NC(=O)[C@H](CCCCN)NC(=O)[C@H](CCCCN)NC(=O)[C@H](CCCNC(=N)N)NC(=O)[C@H](CC(C)C)NC(=O)[C@H](Cc1c[nH]c2ccccc12)NC(=O)[C@H](CCC(=O)O)NC(=O)[C@@H](NC(=O)[C@H](CCCNC(=N)N)NC(=O)[C@H](CCC(=O)O)NC(=O)[C@H](CCSC)NC(=O)[C@H](CO)NC(=O)[C@H](CC(N)=O)NC(=O)[C@H](CC(C)C)NC(=O)[C@H](Cc1c[nH]cn1)NC(=O)[C@H](CCCCN)NC(=O)CNC(=O)[C@H](CC(C)C)NC(=O)[C@H](CC(N)=O)NC(=O)[C@H](Cc1c[nH]cn1)NC(=O)[C@H](CCSC)NC(=O)[C@H](CC(C)C)NC(=O)[C@H](CCC(N)=O)NC(=O)[C@@H](NC(=O)[C@H](CCC(=O)O)NC(=O)[C@H](CO)NC(=O)[C@@H](NC(=O)[C@@H](N)CO)C(C)C)[C@@H](C)CC)C(C)C)C(C)C)C(=O)N[C@@H](CCC(=O)O)C(=O)N[C@@H](Cc1ccc(O)cc1)C(=O)N[C@@H](CCC(=O)O)C(N)=O	–	micro-CT	humanized PTH1R mouse, femur	dose not given	–	bone volume/total volume	40.9% and 82.9% and 54.2%
CN(C)Cc1nc(Nc2ccc(-c3cnc4cc(F)ccn34)c3c2C(=O)NC3)ccc1C1CCOC1 (stereo not drawn)	–	–	mouse EMT6 tumour model, spleen	75 mg/kg, 2 h	–	pSLP76 decrease	> 90%
C=CC(=O)Nc1cccc(Cn2ncc3cnc(Nc4cnn(CCOC)c4)nc32)c1	LKB1 human	binding, KINOMEscan	–	100 nM	lower = stronger binding	percent of control	61%
CCCCCc1ccc(S(=O)(=O)N2CC2C(=O)OC)cc1 (stereo not drawn)	–	–	mouse, Lewis lung carcinoma	intraperitoneal, 5 mg/kg, 16 doses, day 16	–	tumour growth inhibition	71%
COc1cc2c(NC3CCN(C(C)C)CC3)cc(N3CCOCC3)nc2cc1OCCCN1CCCC1	–	TMT proteomics, refers to: LDHB	5xFAD mice, hippocampus	dose not given, unit not given	baseline: untreated 5xFAD	protein level difference	0.144
Cc1nn(-c2cccc(N)c2)c(=O)c2cnc(Nc3ccc(N4CCNCC4)cc3)nc12	Inhibitor of nuclear factor kappa-B kinase subunit epsilon (IKBKE, Homo sapiens, UniProt Q14164)	SelectScreen kinase	–	–	–	IC50	> 10 µM
Cc1ncsc1-c1ccc(C(C)NC(=O)C2CC(O)CN2C(=O)C(NC(=O)CCCCCCCCCCN2CCCC(Nc3ncc(Cl)c(Nc4ccccc4S(=O)(=O)C(C)C)n3)C2)C(C)(C)C)cc1 (stereo not drawn)	22Rv1	RNA-seq, refers to: TMEM44-AS1	–	concentration not given	baseline: DMSO	log2 fold change	-1.72
COC1OC(C)C(OC2OC(C)C(OS(=O)(=O)O)C(OC3OC(C)C(OC4OC(C)C(OS(=O)(=O)O)C(OC5OC(C)C(OC6OC(C)C(OS(=O)(=O)O)C(OC7OC(C)C(OS(=O)(=O)O)C(OS(=O)(=O)O)C7OS(=O)(=O)O)C6OS(=O)(=O)O)C(OS(=O)(=O)O)C5OS(=O)(=O)O)C4OS(=O)(=O)O)C(OS(=O)(=O)O)C3OS(=O)(=O)O)C2OS(=O)(=O)O)C(OS(=O)(=O)O)C1OS(=O)(=O)O (stereo not drawn)	–	–	human plasma	64 µg/mL	–	activated partial thromboplastin time	343 s and 350 s
Nc1ncc(-c2cc(-c3cnn(CC(F)(F)F)c3)ncc2F)nc1C(=O)NC1CNCC(F)C1 (stereo not drawn)	PHKG2	KINOMEscan	–	1 µM	baseline: DMSO control	remaining binding	100%
